Assay results gathered from unrelated publications.
Every numbered part comes from another study and shows a few of its results, in no order.

Sample 1
Target: PABPC1L2, full length, GST fusion (mouse, UniProt A0ABA7IW68)
Method: RNAcompete
Molecule type: RNA
Matrix: in vitro
Tested at: 20 nM
Notes: 7-mer, probes averaged, single round
Baseline: mean of 7-mers
Reading: higher = stronger binding
Construct (chain): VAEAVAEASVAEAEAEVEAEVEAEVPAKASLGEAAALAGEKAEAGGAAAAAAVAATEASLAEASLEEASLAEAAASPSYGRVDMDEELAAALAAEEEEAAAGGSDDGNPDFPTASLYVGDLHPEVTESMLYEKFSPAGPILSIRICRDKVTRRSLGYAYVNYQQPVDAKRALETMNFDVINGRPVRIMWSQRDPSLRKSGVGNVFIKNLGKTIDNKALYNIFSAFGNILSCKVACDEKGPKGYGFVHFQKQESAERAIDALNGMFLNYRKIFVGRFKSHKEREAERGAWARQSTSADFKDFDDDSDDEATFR
| Strand | 7-mer Z-score |
| --- | --- |
| CUACUAA | -0.126 |
| UAGACAA | 0.24 |
| GCCGUCG | -0.503 |
| GUGCUUA | -0.079 |
| UCGCGUA | -0.418 |

Sample 2
Target: Fragile X messenger ribonucleoprotein 1, C-terminal low-complexity region (Fmr1, Mus musculus, UniProt P35922)
Method: RNA Bind-n-Seq
Molecule type: RNA
Matrix: in vitro
Tested at: 200 nM
Notes: whole 134-nt RNA, ends assumed
With: 150 mM KCl
Baseline: input library
Reading: higher = stronger binding
| Strand | log2 enrichment |
| --- | --- |
| GGGAGUUCUACAGUCCGACGAUCCCUCAAGUCCUGUGCUACACAUCGUAUGUACCGAAUCGGAAGGGAAGGAAGGAAAGUAUUAUGUUACGCCGUUCGGAUCUGCACUUCCAGUGGAAUUCUCGGGUGUCAAGG | 0.0791 |
| GGGAGUUCUACAGUCCGACGAUCUCCUGUGCUACACAUCGUAUGUACCGAAUCGGCCCCCCGGGCCCCCCGGCCCCCCGGGGAAAGUAUUAUGUUACGCCGUUCGGAUCUGCAUGGAAUUCUCGGGUGUCAAGG | -0.139 |
| GGGAGUUCUACAGUCCGACGAUCACCAUGCAGGUGGGCAUCUUUGGGAAGUGGGGCAAGGGGGCGAUAGGGAGGGGGGUAACACUUUGGGAACAGGUGGUCCCAGGUCGUUUCUGGAAUUCUCGGGUGUCAAGG | 0.783 |
| GGGAGUUCUACAGUCCGACGAUCUCCUGUGCUACACAUCGUAUGUACCGAAUCGGGGUUUGGGGUUUGGGGAAAAAAAGGGGAAAGUAUUAUGUUACGCCGUUCGGAUCUGCAUGGAAUUCUCGGGUGUCAAGG | 0.526 |

Sample 3
Target: Histone acetyltransferase KAT6A, both winged helices, GST fusion (KAT6A, Homo sapiens, UniProt Q92794, residues 1-181)
Method: protein binding microarray
Molecule type: double-stranded DNA, one strand shown
Matrix: in vitro
Tested at: not given
Notes: 8-mer, flanks averaged, mean of 2 arrays, mostly near background
Baseline: not given
Reading: higher = stronger binding
Residues (chain): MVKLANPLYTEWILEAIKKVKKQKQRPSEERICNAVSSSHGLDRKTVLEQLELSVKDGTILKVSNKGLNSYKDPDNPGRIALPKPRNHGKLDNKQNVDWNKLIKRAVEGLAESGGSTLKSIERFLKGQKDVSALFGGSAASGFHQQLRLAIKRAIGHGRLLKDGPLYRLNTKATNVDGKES
| Strand | E-score |
| --- | --- |
| GTTCGTCA | 0.0416 |
| AGCAAATG | -0.276 |
| GAAATGGC | 0.035 |
| AACGAGTC | -0.0669 |
| ACTTCGCG | 0.204 |

Single results of other studies
| Substance | target | test | test system | setting | how to read | quantity | result |
| --- | --- | --- | --- | --- | --- | --- | --- |
| PhoQ, residues 284 288 289 292 302 303 QWGLFV | PhoP, residues 12 14 15 18 19 HLGGL (Escherichia coli, UniProt P23836) | Sort-seq, measured: YFP reporter | E. coli | PhoQ-PhoP variant library, with: 10 µM Mg2+ | baseline: high Mg2+ state, higher = stronger signaling | fold induction | 1.33 |

Some of these lines once more (sample 1):
| Strand | 7-mer Z-score |
| --- | --- |
| GUGCUUA | -0.079 |
